Assay results gathered from unrelated publications.
Lines come from different studies, so protocols differ.
Matrix: plasma

CNC(=O)C1CCCN(C(=O)C2CC3CCC2N3C(=O)[C@@H]2C[C@@H](O)CN2C(=O)NCc2cccc(Cl)c2F)C1 (mixture of isomers)  Cmax (rat; oral, 8 mg/kg): 1.49 ng/mL
CCC(CC)n1c(Cc2ccco2)nc2cc(C(=O)N[C@@H](CC(=O)O)c3ccccc3)ccc21  Cmax (Sprague-Dawley rat; intravenous, 1 mg/kg): 964 ng/mL
Cc1cccc(Cn2ncc3c4cc(F)c(CN(C)C)cc4n(C)c3c2=O)n1  Cmax (Sprague-Dawley rat; oral, 10 mg/kg): 301 ng/mL
CC(=Nc1ccc(N)cc1)N(C)C  Cmax (male Sprague-Dawley rat; oral, 200 mg/kg): 8620 ng/mL
Cc1cccc(C)c1CNc1cc(C(=O)N2CCC2)cn2c(C)c(C)nc12  Cmax (male Sprague-Dawley rat; oral, 10 mg/kg): 303 ng/mL
COC(=O)C1=CNC=C(C(=O)OC)C1c1ccc(F)c(C(F)(F)F)c1  Cmax (male Sprague-Dawley rat; intravenous, 5 mg/kg): 1380 ng/mL
OC1(C(F)(F)F)CCN(c2nc(Nc3ccnc(C(F)(F)F)c3)nc(-c3cccc(C(F)(F)F)n3)n2)C1 (stereo not drawn)  Cmax (Sprague-Dawley rat; oral, 10 mg/kg): 558 ng/mL
C=C(NC(=O)c1csc(-c2nc3c(cc2O)-c2nc(cs2)C(=O)NC(C(C)O)C(=O)NC(=C(C)OC)c2nc(cs2)C(=O)NC2c4nc(cs4)C(=O)NC(COC(=O)c4c5c6c(cccc6n4O)COC(=O)C(OC4CC(C)(O)C(N(C)C)C(C)O4)C2OC5)c2nc-3cs2)n1)C(N)=O (stereo not drawn)  Cmax (male Sprague-Dawley rat; intravenous, 6 mg/kg, single dose, infusion): 3540 ng/mL
O=C(O)c1c(O)cc(O[C@@H]2O[C@H](CO)[C@@H](O)[C@H](O)[C@H]2O)cc1/C=C/c1ccccc1  Cmax (male Sprague-Dawley rat; intravenous, 1 mg/kg): 6820 ng/mL
CNc1cc(C)c(C(N)=O)cn1  Cmax (male Wistar rat; oral, 30 mg/kg): ~100 µM
O=C(C1CCN(c2nnnn2-c2ccccc2)CC1)N1CCCc2ccccc21  Cmax (male Sprague-Dawley rat; oral, 5 mg/kg): 10.2 ng/mL
CCC(CC)n1c(Cc2cccs2)nc2cc(C(=O)N[C@@H](CC(=O)O)c3ccccc3)ccc21  Cmax (Sprague-Dawley rat; intravenous, 1 mg/kg): 1160 ng/mL
C/C(N)=N/C(=N\S(=O)(=O)c1ccc(C(F)(F)F)cc1)N1C[C@H](c2ccccc2)C(c2ccc(Cl)cc2)=N1  Cmax (male Sprague-Dawley rat; oral, 30 mg/kg): 3120 ng/mL
COc1cc(-c2cc(=O)c3ccc(OCCCn4c(Cl)nc5ccccc54)cc3o2)cc(OC)c1OC  Cmax (male Sprague-Dawley rat; intravenous, 10 mg/kg): 220 ng/mL
COCCN(C)CC(=O)NC(Cc1ccc(-c2ccccc2)cc1)B(O)O (stereo not drawn)  Cmax (rat; oral, 1 mg/kg): 1.4 µM
Cc1cc2c(cc1O)C=C1C=CC(=O)C(C)(C)[C@H]1CC2  Cmax (male Sprague-Dawley rat; oral, 20 mg/kg): 10.3 ng/mL
COC1C(c2ccc(Cl)c(Cc3ccc(OC4CCOC4)cc3)c2)OC(CO)C(O)C1O (stereo not drawn)  Cmax (Sprague-Dawley rat; intravenous, 2.5 mg/kg): 3030 ng/mL
COc1cc(OC)c2c(=O)cc(-c3cc(C)c(OCCCN4CCN(C)CC4)c(C)c3)oc2c1  Cmax (male Sprague-Dawley rat; oral, 20 mg/kg, single dose): 796 ng/mL

For quick reference, copied from above:
O=C(C1CCN(c2nnnn2-c2ccccc2)CC1)N1CCCc2ccccc21  Cmax (male Sprague-Dawley rat; oral, 5 mg/kg): 10.2 ng/mL
CCC(CC)n1c(Cc2cccs2)nc2cc(C(=O)N[C@@H](CC(=O)O)c3ccccc3)ccc21  Cmax (Sprague-Dawley rat; intravenous, 1 mg/kg): 1160 ng/mL
C/C(N)=N/C(=N\S(=O)(=O)c1ccc(C(F)(F)F)cc1)N1C[C@H](c2ccccc2)C(c2ccc(Cl)cc2)=N1  Cmax (male Sprague-Dawley rat; oral, 30 mg/kg): 3120 ng/mL
